{"data": "Measurements from different studies", "rep nsp12 with nsp14/nsp10": "Replicase polyprotein 1ab, nsp12 with nsp14/nsp10 (rep, Severe acute respiratory syndrome coronavirus 2, UniProt P0DTD1)", "TST": "Thiosulfate sulfurtransferase (TST, Homo sapiens, UniProt Q16762)", "OPG122": "mRNA-decapping protein OPG122 (OPG122, Vaccinia virus, UniProt P04312)", "rep papain-like protease": "Replicase polyprotein 1ab, papain-like protease (rep, Severe acute respiratory syndrome coronavirus 2, UniProt P0DTD1)", "note": "Each line is one published result; not all experiments were run side by side. Values joined by “and” are separate records of one study, mostly repeats; a detail may differ. ± gives the spread as reported."}
{"Structure (SMILES)": "O=C(CSc1c[nH]c2ccccc12)NCc1ccc(Cl)c(Cl)c1", "target": "rep nsp12 with nsp14/nsp10", "assay": "RdRp reporter activity, inhibitor, Gaussia luciferase reporter", "system": "HEK293T", "setting": "24 h, with: nsp7, nsp8, nsp10, nsp14", "quantity": "EC50", "result": "2.89 µM"}
{"Structure (SMILES)": "NC(=O)c1c(N)[nH]c(C(=O)c2ccccc2)c1-c1ccc(F)c(Oc2ccccc2)c1", "target": "TST", "assay": "enzyme activity, activator, cyanide to thiocyanate conversion", "quantity": "EC50", "result": "2.7 ± 6.1 µM"}
{"Structure (SMILES)": "Nc1nc2c(nc(O)n2C2OC(COP(=O)(O)OP(=O)(O)OP(=O)(O)O)C(O)C2O)c(=O)[nH]1 (stereo not shown)", "target": "OPG122", "assay": "inhibitor", "quantity": "Ki", "result": "> 0.8 µM"}
{"Structure (SMILES)": "COCn1cc(-c2cc(-c3cnn(C(F)F)c3)cc([C@@H](C)NC(=O)c3cc(OCCN(C)C)ccc3C)c2)cn1", "target": "rep papain-like protease", "assay": "protease activity, inhibitor, FlipGFP", "system": "SARS-CoV-2", "quantity": "EC50", "result": "2.6 ± 0.2 µM"}
{"Structure (SMILES)": "Nc1ncnc2c1ncn2C1OC(COP(=O)(O)OP(=O)(O)OP(=O)(O)O)C(O)C1F (stereo not shown)", "target": "OPG122", "quantity": "IC50", "result": "> 200 µM"}
{"Structure (SMILES)": "Cc1ccc(OCCN(C)C)cc1C(=O)N[C@H](C)c1cc(-c2cnn(C)c2)cc(-c2cnn(CCN3CCOCC3)c2)c1", "target": "rep papain-like protease", "assay": "protease activity, inhibitor, FlipGFP", "system": "SARS-CoV-2", "quantity": "EC50", "result": "2 ± 0.4 µM"}
{"Structure (SMILES)": "CSc1ncnc2c1ncn2C1OC(COP(=O)(O)OP(=O)(O)OP(=O)(O)O)C(O)C1O (stereo not shown)", "target": "OPG122", "quantity": "Ki", "result": "> 0.8 µM"}
{"Structure (SMILES)": "CC[C@H](C)[C@@H]1NC(=O)[C@@H](NC(=O)[C@H](CO)NC(=O)[C@@H](N)CCCNC(=N)N)CSSC[C@@H](C(=O)O)NC(=O)[C@H]([C@@H](C)O)NC(=O)CNC(=O)[C@@H]2CSSC[C@@H]3NC(=O)[C@H](CCC(N)=O)NC(=O)[C@H](Cc4ccccc4)NC(=O)[C@H](C)NC(=O)[C@H]([C@@H](C)O)NC(=O)[C@H](CSSC[C@H](NC(=O)[C@H](Cc4ccccc4)NC(=O)[C@H](CO)NC(=O)[C@H](CC(C)C)NC(=O)[C@H](CCCNC(=N)N)NC(=O)[C@H](Cc4ccc(O)cc4)NC(=O)[C@H](CC(N)=O)NC(=O)[C@H](CCSC)NC(=O)[C@H](CO)NC(=O)[C@H](Cc4c[nH]cn4)NC(=O)[C@H](CCCCN)NC3=O)C(=O)N[C@@H](CCCNC(=N)N)C(=O)N[C@@H](CCCCN)C(=O)N[C@@H]([C@@H](C)O)C(=O)N2)NC(=O)[C@H](CCCNC(=N)N)NC(=O)[C@H](CO)NC(=O)[C@H](CCCCN)NC(=O)[C@@H]2CCCN2C(=O)[C@H]([C@@H](C)CC)NC(=O)[C@H]([C@@H](C)O)NC(=O)[C@H](CC(=O)O)NC1=O", "target": "Potassium voltage-gated channel subfamily A member 3 (KCNA3, Homo sapiens, UniProt P22001)", "assay": "potassium current, inhibitor, two-electrode voltage clamp", "system": "Xenopus oocytes", "quantity": "Ki", "result": "0.0012 ± 0.0001 µM"}
{"Structure (SMILES)": "C[C@H](c1cccc2ccccc12)N(C)Cc1ccc(O)cc1Cl", "target": "rep papain-like protease", "assay": "enzyme activity in cells, inhibitor", "quantity": "EC50", "result": "10.2 µM"}
{"Structure (SMILES)": "Nc1ncnc2c1ncn2C1OC(COP(=O)(O)OP(=O)(O)OP(=O)(O)O)C(O)C1O (stereo not shown)", "target": "OPG122", "quantity": "Ki", "result": "0.34 µM"}
{"Structure (SMILES)": "O=C(O)c1ccc(Nc2cc(Nc3ccc(C(=O)O)cc3)c3c(=O)c(Nc4ccc(C(=O)O)cc4)c(-c4ccc(Nc5ccc(C(=O)O)cc5)c(Nc5ccc(C(=O)O)cc5)c4)oc3c2)cc1", "target": "Dipeptidyl peptidase 4, with MERS-CoV spike (DPP4, Homo sapiens, UniProt P27487)", "quantity": "IC50", "result": "12 µM"}
{"Structure (SMILES)": "O=C(NCc1ccccc1)C(N[C@@H]1CCSC1=O)C1CC1 (single isomer, unassigned)", "target": "TST", "assay": "enzyme activity, activator, cyanide to thiocyanate conversion", "quantity": "EC50", "result": "28.5 ± 5.9 µM"}
{"Structure (SMILES)": "CC(C)C[C@H](NC(=O)OCc1ccccc1)C(=O)N[C@H](C=O)C[C@@H]1CCNC1=O", "target": "Replicase polyprotein 1ab, 3C-like proteinase (rep, Middle East respiratory syndrome-related coronavirus, UniProt K9N7C7)", "assay": "viral replication", "quantity": "EC50", "result": "4 µM and < 10 µM"}
{"Structure (SMILES)": "Cc1ccc(OCCN(C)C)cc1C(=O)N[C@H](C)c1cc(-c2cnn(CF)c2)cc(-c2ccn(C)n2)c1", "target": "rep papain-like protease", "assay": "protease activity, inhibitor, FlipGFP", "system": "SARS-CoV-2", "quantity": "EC50", "result": "2.7 ± 0.6 µM"}
{"Structure (SMILES)": "CCOC(=O)C=CC(CC1CCNC1=O)NC(=O)C(CC(C)C)NC(=O)C(NC(=O)OCc1ccccc1)C(C)OC(C)(C)C (stereo not shown)", "target": "Replicase polyprotein 1ab, main protease (Bat coronavirus HKU9, UniProt P0C6W5)", "assay": "viral replication", "quantity": "EC50", "result": "< 10 µM and 4.11 µM"}
{"Structure (SMILES)": "CC(C)C[C@@H]1NC(=O)[C@H](CCCNC(=N)N)NC(=O)[C@@H]2CCCN2C(=O)[C@@H]2CSSC[C@H](NC(=O)CNC(=O)[C@@H]3CCCN3C(=O)[C@H](CCCCN)NC(=O)[C@H](CC(=O)O)NC(=O)[C@@H](NC(=O)CN)C(C)C)C(=O)N[C@@H](CCCNC(=N)N)C(=O)N[C@@H](Cc3ccc(O)cc3)C(=O)N[C@@H](CC(C)C)C(=O)N[C@@H](Cc3ccccc3)C(=O)NCC(=O)NCC(=O)N[C@H]3CSSC[C@H](NC(=O)CNC1=O)C(=O)N[C@@H](CCCCN)C(=O)NCC(=O)N[C@@H](CCCCN)C(=O)NCC(=O)N[C@@H](Cc1c[nH]cn1)C(=O)N[C@@H](CC(=O)O)C(=O)N[C@@H](Cc1ccc(O)cc1)C(=O)N[C@H](C(=O)N[C@@H](C)C(=O)N[C@@H](Cc1c[nH]c4ccccc14)C(=O)N[C@@H](CC(=O)O)C(=O)NCC(=O)N[C@H](C(=O)N[C@@H](Cc1ccccc1)C(=O)N[C@@H](CO)C(=O)N[C@@H](CC(=O)O)C(=O)O)[C@@H](C)O)CSSC[C@H](NC(=O)[C@H](CC(=O)O)NC(=O)[C@H](CC(=O)O)NC(=O)[C@H](CC(=O)O)NC(=O)[C@H](CO)NC(=O)[C@H](CCCCN)NC3=O)C(=O)N2", "target": "Sodium channel protein type 10 subunit alpha (SCN10A, Homo sapiens, UniProt Q9Y5Y9)", "assay": "sodium current, potentiator", "setting": "holding potential -80 mV", "quantity": "EC50", "result": "1.1 ± 0.1 µM"}
{"Structure (SMILES)": "O=C[C@H](C[C@@H]1CCNC1=O)NC(=O)[C@H](CC1CCCCC1)NC(=O)c1cc2ccccc2[nH]1", "target": "Replicase polyprotein 1ab, main protease (rep, Human coronavirus NL63, UniProt P0C6X5)", "assay": "viral replication", "quantity": "EC50", "result": "> 20 µM"}
{"Structure (SMILES)": "COc1nc(N)nc2c1ncn2C1OC(COP(=O)(O)OP(=O)(O)OP(=O)(O)O)C(O)C1O (stereo not shown)", "target": "OPG122", "quantity": "Ki", "result": "> 0.8 µM"}
{"Structure (SMILES)": "O=C(CSc1[nH]c2ccccc2c1SCC(=O)Nc1ccc(Cl)c(Cl)c1)Nc1ccc(Cl)c(Cl)c1", "target": "rep nsp12 with nsp14/nsp10", "assay": "RdRp reporter activity, inhibitor, Gaussia luciferase reporter", "system": "HEK293T", "setting": "24 h, with: nsp7, nsp8, nsp10, nsp14", "quantity": "EC50", "result": "3.62 µM"}
